Published values of several laboratories.
Several values in a cell are separate wells, animals, samples, runs or records. ± gives the spread as reported.

| SMILES | target or system | assay | system | setting | how to read | quantity | result |
| --- | --- | --- | --- | --- | --- | --- | --- |
| CC[C@H](C)C(=O)N1CCC(NC(=O)Nc2ccc(OC(F)(F)F)c(F)c2)CC1 | Caco-2 | Caco-2 permeability |  | 10 µM, 60 min, pH 7.4 apical, 7.4 basolateral, mean, with: verapamil | basolateral to apical | percent recovery | 90% |
| Cc1cn([C@H]2C[C@H](N=[N+]=[N-])[C@@H](CO)O2)c(=O)[nH]c1=O | CEM-SS | XTT |  | 6 days |  | TC50 | > 0.5 µM |
| Cc1ccc(CNC(=O)Cn2cc(CSc3nc4ccccc4[nH]3)nn2)cc1 | HEK293 | MTT |  | 31.3 ppm |  | viability | 17.2% |
| CN(C(=O)C(C)(C)c1cc(C(F)(F)F)cc(C(F)(F)F)c1)c1cnc(N2C[C@H]3COCCN3C[C@H]2CO)cc1-c1ccc(F)cc1[14CH3] | cryopreserved human hepatocytes |  |  | 5 µM, 1 h, with: 5 µM cobicistat |  | turnover | 12.4% |
| COC[C@@H](CC(C)C)NC(=O)c1ccc(C)c(C)c1 | primary human lymphocytes |  |  | 280 µg/mL, 4 (unit not given), with S9 |  | cells with structural aberrations | 0% |
| C[C@H](O)c1ccc(NS(=O)(=O)c2ccc(OCC3CCC3)c(Cl)c2)c2nn(C)cc12 | cryopreserved human hepatocytes | pan-CYP inhibition |  | 1 µM, with: 1 mM 1-aminobenzotriazole and 15 µM tienilic acid |  | metabolism inhibited by ABT and TA | 79% |
| Cc1c(-c2ccc(N3CCc4cccc(C(=O)Nc5nc6ccccc6s5)c4C3)nc2C(=O)O)cnn1CC12CC3(C)CC(C)(C1)CC(OCCNCC[C@H](O)CO)(C3)C2 |  |  | anaesthetised male beagle dogs | intravenous infusion, 0.3 mg/kg/min, 45 min | baseline: vehicle | cardiac output change | -31% |
| C[C@H]1O[C@@H](O[C@H]2CC[C@@]3(C)[C@@H](CC[C@]4(C)[C@@H]3C=C[C@]35OC[C@@]6(CCC(C)(C)C[C@H]63)[C@@H](O)C[C@]54C)[C@]2(C)CO)[C@H](O)[C@@H](O[C@@H]2O[C@H](CO)[C@@H](O)[C@H](O)[C@H]2O)[C@H]1O | LO2 |  |  | 15 µM, 24 h |  | viability | 13% and 38% and 15% |
| COc1cccc2c1C(=O)c1c(O)c3c(c(O)c1C2=O)C[C@@](O)(C(=O)CO)C[C@@H]3O[C@H]1C[C@H](N)[C@H](O)[C@H](C)O1 | THLE-2 transduced with Ad-CYP1A2 | metabolism-induced cytotoxicity |  | 48 h, 3D Matrigel spots |  | IC50 | 3.9 ± 1 µM |
| CC(C)n1ncc2c(C(=O)NCC3(C)CNC3)cc(C3CC3)nc21 | HeLa | neutral red uptake |  | 0.33 µM, 2% FBS | baseline: positive control | viability | 102% |
| COc1ccc2[nH]c([S+]([O-])Cc3ncc(C)c(OC)c3C)nc2c1 (stereo not shown) | human hepatocytes | measured: CYP1A2 |  | concentration not given, 3 days | baseline: negative control | mRNA level | 13.8 to 105 fold |
| Cc1noc(C)c1Cn1cc(N2C(=O)CN(Cc3cccc(O)c3)C2=O)cn1 | human blood lymphocytes |  |  | 823.8 µg/mL, 3 h, with 2% S9 |  | aberrant cells without gaps | 2% |
| O=C(O)/C=C/c1ccccc1 | HaCaT | cytotoxicity, MTT |  | 48 h, 10% FBS |  | IC50 | > 200 µM |
| O=C(Nc1ccc([N+](=O)[O-])cc1Cl)c1cc(Cl)ccc1O | primary human keratinocytes uninfected | live/dead staining |  | 20 h |  | CC50 | 24.5 µM |
| CCCC(=O)OCSc1ccccc1C(=O)NCCn1ccc(=O)c2cc(OC(F)(F)F)ccc21 | CEM-SS | cell viability, XTT | RPMI with 10% FBS | 6 days |  | TC50 | 41.6 ± 6.5 µM |
| O=P1(C2CCCCC2)CCCCC1 | HaCaT | trypan blue |  | IC50, 72 h |  | viability | 92.3% |
| CCCC(=O)OCSc1ccccc1C(=O)NCCn1ccc(=O)c2cc3c(cc21)OCO3 | CEM-SS | cell viability, XTT | RPMI with 10% FBS | 6 days |  | TC50 | 32.2 ± 3 µM |
| Nc1ccn([C@@H]2O[C@H](CO)[C@@H](O)C2(F)F)c(=O)n1 | primary human keratinocytes uninfected | live/dead staining |  | 20 h |  | CC50 | < 0.08 µM |
| CCCC(=O)OCSc1ccccc1C(=O)NCCn1cc(C(=O)N2CCN(C)CC2)c(=O)c2cc3c(cc21)OCO3 | CEM-SS | cell viability, XTT | RPMI with 10% FBS | 6 days |  | TC50 | > 100 µM |
| COc1cccc(-c2n[nH]c(SCc3ccccn3)n2)c1OC | CHO-WBL |  |  | 63 µg/mL, 19 h, without S9 |  | binucleated cells with micronuclei | 1.9% |
| O=C(O)C[C@H](Nc1ncnc2c1ncn2[C@@H]1O[C@H](COP(=O)(O)O)[C@@H](O)[C@H]1O)C(=O)O |  | binding, MIDAS equilibrium dialysis LC-MS | A2AR-BRIL thermostabilized | concentration not given | baseline: no-protein control | log2 fold change | -0.263 |
| O=C(O)c1ccc(O)cc1 | HaCaT | cytotoxicity, MTT |  | 48 h, 10% FBS |  | IC50 | > 200 µM |

| SMILES | target or system | assay | system | setting | how to read | quantity | result |
| --- | --- | --- | --- | --- | --- | --- | --- |
| C=CC(=O)N(C)CCOc1c(N)ncnc1-c1cc(F)cc(NC(=O)c2ccc(C3CC3)cc2F)c1C | human hepatocytes | mRNA induction, inducer, measured: CYP2B6 |  |  |  | EC50 | 5.47 µM |
| CCCC(=O)OCSc1ccccc1C(=O)NCCn1cc(C(=O)NCc2ccncc2)c(=O)c2cc3c(cc21)OCO3 | CEM-SS | cell viability, XTT | RPMI with 10% FBS | 6 days |  | TC50 | 23 ± 3.55 µM |
| O=C1c2ccncc2C(=O)c2c1[nH]c1ccccc21 | PAH hPASMC | Seahorse XFe24 |  | 1 µM, 12 h |  | mitochondrial respiration | no inhibition |
| CCC[C@H](CC)Oc1ccc(C(=O)OC)cc1NC(=O)c1nnn(-c2cc(OC)ccc2OC)c1C | SNU-C4 HiBiT-PXR knock-in | CellTiter-Glo |  | 72 h, 10% FBS |  | CC50 | > 30 µM |
| COc1cc(/C=C/C=C2\SC(=S)NC2=O)cc(OC)c1O | HeLa | CellTiter-Glo |  | 2.5 µM, 24 h, unit not given | baseline: untreated | viability | 0.975 and 1.03 |
| CC1(C)CCC(c2ccc(Cl)cc2)=C(CN2CCN(c3ccc(C(=O)NS(=O)(=O)c4ccc(N[C@H](CCN5CCOCC5)CSc5ccccc5)c(S(=O)(=O)C(F)(F)F)c4)cc3)CC2)C1 | murine ileum enteroid monolayers | drug in secreted lipoproteins |  | 50 % saturated solubility, with: oleic acid/2-monoolein micelles | baseline: taurocholate/phosphatidylcholine micelles | max increase of Papp | 14.9 fold |
| Cc1cc(C(=O)NC(C)(C)COc2cccc3c2C(N)=NS(=O)(=O)N3)cc(C)n1 | human peripheral blood lymphocytes | CBPI, preliminary test |  | 200 µg/mL, 4 h | baseline: vehicle control | cytotoxicity | 2% |
| CCC[C@H](CC)Oc1ccc(C(C)(C)C)cc1NC(=O)c1nnn(-c2cc(OC)ccc2OC)c1C | SNU-C4 HiBiT-PXR knock-in | CellTiter-Glo |  | 72 h, 10% FBS |  | CC50 | > 30 µM |
| Cn1cc(-c2ccc(-c3cncc(Cl)c3N3CCC4(CCNC4=O)CC3)cc2)cn1 | COLO 205 | gene expression, microarray, measured: EIF4EBP1 mRNA |  | concentration not given, 6 h | baseline: untreated cells | log2 fold change | 1.22 |
| Cc1cc(NC(=O)Nc2ccc3c(c2)OC(F)(F)O3)cc(C(F)(F)F)n1 | THP-1-derived macrophages (PMA) | cytotoxicity |  |  |  | IC50 | 16 µM |
| O=C(O)CCCc1ccccc1 |  | binding, MIDAS equilibrium dialysis LC-MS | A2AR-BRIL thermostabilized | concentration not given | baseline: no-protein control | log2 fold change | -0.175 |
| OCCN1CCN(CCCN2c3ccccc3Sc3ccc(Cl)cc32)CC1 | differentiated SH-SY5Y |  |  | 10 µM, 24 h, compound alone | baseline: vehicle | cytotoxicity | not toxic |
| O=C(C[C@@H](C(F)F)n1ccc(F)n1)N1CCC(O)(Cn2cnc3c(cnn3-c3ccc(F)cc3)c2=O)CC1 | CHP-212 USP7 V517F knock-in | SRB |  | 9.145 nM, 5 days |  | viability | 103% |
| CCCC(=O)OCSc1ccccc1C(=O)NCCn1cc(C(=O)NCc2cccc(C)n2)c(=O)c2cc3c(cc21)OC(F)(F)O3 | human PBMCs, PHA-P-stimulated | XTT |  | 7 days |  | TC50 | > 100 µM |
| Cc1ccc(-c2ccc3c(c2)C=C(C(=O)Nc2ccc(C[N+](C)(C)C4CCOCC4)cc2)CCC3)cc1.[Cl-] | MAGI cells | cytotoxicity |  | attachment |  | TC50 | > 10 µM |
| CCCC(=O)OCSc1ccccc1C(=O)NCCOc1ccnc2ccc(C(F)(F)F)cc12 | CEM-SS | cell viability, XTT | RPMI with 10% FBS | 6 days |  | TC50 | 81.9 µM |
| COc1cc2ncnc(Nc3ccc(Oc4ccccc4)cc3C)c2cc1OC.O=C(O)C(F)(F)F | MeWo (NF1) | resazurin |  | 3 µM, 72 h, with: trametinib 0 nM |  | viability fraction | 0.778 |
| CC(=O)ON=C1C=CC(=C(C#N)c2ccccc2)C=C1 | HDF-1 human skin fibroblasts | MTT |  | 24 h, serum-free DMEM |  | concentration of sudden viability drop | ≥ 30000 ng/mL |
| C[C@H](CCC(=O)NCCS(=O)(=O)O)[C@H]1CC[C@H]2[C@@H]3[C@H](O)C[C@@H]4C[C@H](O)CC[C@]4(C)[C@H]3C[C@H](O)[C@]12C | HCE | MTT |  | up to 50 µM |  | cytotoxicity | not toxic |
| CCCC(=O)OCSc1ccccc1C(=O)NCCn1ccc(=O)c2cc(F)ccc21 | CEM-SS | cell viability, XTT | RPMI with 10% FBS | 6 days |  | TC50 | 56.2 ± 1.9 µM |
| Cc1ccc(-c2nc(NS(=O)(=O)c3ccc(C)cc3)nc(N)c2-c2nc3ccccc3s2)cc1 | Vero | cytotoxicity |  | 72 h |  | maximum non-toxic concentration | 100 µg/mL |
